Measurements from different studies.
Several values in a cell are separate wells, animals, samples, runs or records. Numbers after ± are the reported error.

Cc1ccc(OCCN(C)C)cc1C(=O)N[C@H](C)c1cc(-c2ccn(C)n2)nc2ccccc12  viability (Vero E6; 7.812 µM): 87.6% and 84.9% and 86.7%
CSCC[C@H](NC(=O)CNC(=O)[C@H](CCCCN)NC(=O)[C@H](CC(C)C)NC(=O)[C@@H]1CCCN1C(=O)[C@H](CO)NC(=O)[C@H](Cc1c[nH]cn1)NC(=O)[C@H](Cc1c[nH]c2ccccc12)NC(=O)[C@H](CCCNC(=N)N)NC(=O)[C@H](CC(C)C)NC(=O)[C@H](CCCNC(=N)N)NC(=O)[C@H](Cc1c[nH]c2ccccc12)NC(=O)[C@H](CS)NC(=O)CCCCCNC(=O)CN1CCN(CC(=O)O)CCN(CC(=O)O)CCN(CC(=O)O)CC1)C(=O)O [copper-64 labelled]  tissue uptake (BALB/c nude mouse, Huh-7 tumour, small intestine; intravenous, 6 h, ex vivo biodistribution): 3.78 %ID/g
CC[C@H](C)[C@H](NC(=O)[C@H](CCCNC(=N)N)NC(=O)[C@H](CCCCN)NC(=O)[C@H](Cc1ccc(O)cc1)NC(=O)[C@H](CC(=O)O)NC(=O)[C@H](C)NC(=O)CNC(=O)CCOCCOCCOCCNC(=O)CN1CCN(CC(=O)O)CCN(CC(=O)O)CCN(CC(=O)O)CC1)C(=O)N[C@H](C(=O)N[C@H](C(=O)N[C@@H](CCCCN)C(=O)N[C@H](C(=O)N[C@@H](CC(N)=O)C(N)=O)C(C)C)C(C)C)[C@@H](C)O [copper-64 labelled]  tissue uptake (ex vivo gamma counting; male C57BL/6J mouse, B16-F10 tumour, intestinal lymph node; intravenous, 1.85 MBq, 5 min): 2.39 ± 0.415 %ID/g
O=C1NC2(CC2)COc2ncc(F)cc2[C@H]2COCCN2c2ccn3ncc1c3n2  organ-to-body weight ratio (Sprague-Dawley rat, female, thymus; oral, 20 mg/kg/day, 4 weeks dosing, end of recovery): 0.115 ± 0.044%
CC[C@H](C)[C@H](NC(=O)[C@H](CCCCN)NC(=O)CNC(=O)[C@H](CC(C)C)NC(=O)[C@H](Cc1ccccc1)NC(=O)[C@H](CCCCN)NC(=O)[C@H](CO)NC(=O)[C@H](Cc1ccccc1)NC(=O)[C@H](Cc1c[nH]c2ccccc12)NC(=O)[C@H](CCC(N)=O)NC(=O)[C@@H](NC(=O)[C@H](Cc1ccccc1)NC(=O)CCCCCNC(=O)CN1CCN(CC(=O)O)CCN(CC(=O)O)CCN(CC(=O)O)CC1)C(C)C)C(=O)N[C@@H](CCC(=O)O)C(=O)N1CCC[C@H]1C(=O)N[C@@H](CC(=O)O)C(=O)N[C@H](C(=O)N[C@@H](CO)C(=O)N[C@@H](CCC(N)=O)C(=O)N[C@H](C(=O)N[C@@H](CCC(N)=O)C(=O)N[C@@H](CC(=O)O)C(=O)N1CCC[C@H]1C(=O)N[C@@H](CC(N)=O)C(=O)N[C@@H](CC(=O)O)C(=O)N[C@@H](CCC(N)=O)C(=O)N[C@@H](Cc1ccc(O)cc1)C(=O)N[C@@H](CCC(=O)O)C(=O)N1CCC[C@H]1C(=O)N[C@@H](Cc1ccccc1)C(=O)O)C(C)C)C(C)C [copper-64 labelled]  tissue uptake (C57BL/6 mice, male, tumour-free, liver; 24 h): 21.6 ± 1.6 %ID/g
C[C@H](O)[C@@H](NC(=O)[C@H]1CCCN1C(=O)[C@@H](CCCCN)NC(=O)[C@@H](CO)NC(=O)[C@@H](Cc1ccc(O)cc1)NC(=O)[C@@H](CC(N)=O)NC(=O)CCOCCOCCOCCNC(=O)CN1CCN(CC(=O)O)CCN(CC(=O)O)CCN(CC(=O)O)CC1)C(=O)N[C@H](CC(=O)O)C(=O)N[C@H](CCCNC(=N)N)C(=O)N[C@H](CCC(N)=O)C(=O)N[C@H](Cc1ccc(O)cc1)C(=O)N[C@H](Cc1c[nH]cn1)C(=O)N[C@H](Cc1ccccc1)C(N)=O [gallium-68 labelled]  tissue uptake (BALB/c nude mice U-87 MG tumour, stomach; intravenous, 1.85 MBq, 0.5 h, radiolabelled): 0.61 ± 0.35 %ID/g
CCCC[C@H]1C(=O)N(C)[C@@H](CCCC)C(=O)N[C@@H](CCCNC(=O)CN2CCN(CC(=O)O)CCN(CC(=O)O)CCN(CC(=O)O)CC2)C(=O)N[C@H](C(=O)NCC(N)=O)CSCC(=O)N[C@@H](Cc2ccc(O)cc2)C(=O)N(C)[C@@H](C)C(=O)N[C@@H](CC(N)=O)C(=O)N2CCC[C@H]2C(=O)N[C@@H](Cc2c[nH]cn2)C(=O)N[C@@H](CC(C)C)C(=O)N(C)CC(=O)N[C@@H](Cc2c[nH]c3ccccc23)C(=O)N[C@@H](CO)C(=O)N[C@@H](Cc2c[nH]c3ccccc23)C(=O)N1C [gallium-68 labelled]  tissue uptake (NOD/SCID mice, CHO-hPD-L1 xenograft, brain; 60 min, atezolizumab 10 mg/kg pretreatment): 0.39 ± 0.04 %ID/g
CC[C@H](C)[C@H](NC(=O)[C@H](CCCNC(=N)N)NC(=O)[C@H](CCCCN)NC(=O)[C@H](Cc1ccc(O)cc1)NC(=O)[C@H](CC(=O)O)NC(=O)[C@H](C)NC(=O)CNC(=O)CCOCCOCCOCCNC(=O)CN1CCN(CC(=O)O)CCN(CC(=O)O)CCN(CC(=O)O)CC1)C(=O)N[C@H](C(=O)N[C@@H](CC(C)C)C(=O)N[C@@H](CCCCN)C(=O)N[C@H](C(=O)N[C@@H](CC(N)=O)C(N)=O)C(C)C)[C@@H](C)O [copper-64 labelled]  tissue uptake (C57BL/6J mouse male, B16-F10 tumour, small intestine; intravenous, 1.85 MBq, 100 min, 67Ga complex): 2.21 ± 0.495 %ID/g
CN1Cc2cc(Cl)ccc2-n2c(nnc2C2CCN(c3cccc([18F])n3)CC2)C1  tissue uptake (C57BL/6 mouse male, blood; intravenous, 3.7 MBq, 1 min): 5.66 ± 2.07 %ID/g
CC(C)C[C@@H](NC(=O)[C@@H](CCCNC(=N)N)NC(=O)[C@@H](Cc1c[nH]cn1)NC(=O)[C@@H](Cc1c[nH]c2ccccc12)NC(=O)[C@@H](Cc1c[nH]cn1)NC(=O)[C@@H](Cc1ccccc1)NC(=O)[C@H](NC(=O)[C@@H](Cc1ccc(O)cc1)NC(=O)CNC(=O)CNC(=O)CCOCCOCCOCCNC(=O)CN1CCN(CC(=O)O)CCN(CC(=O)O)CC1)[C@H](C)O)C(=O)N[C@H](CC(N)=O)C(=O)N1CCC[C@@H]1C(=O)O [gallium-68 labelled]  tissue uptake (gamma counting; C57BL/6 mice, male, muscle; intravenous, 1.85 MBq, 30 min): 1.1 ± 0.26 %ID/g
Cc1ccc(N2CC3CN(C)CC3C2)cc1C(=O)N[C@H](C)c1cc(-c2cnn(C)c2)nc2ccccc12 (some centres unmarked)  viability (African green monkey cells; 15.62 µM): 105%

Some of these lines once more:
CC[C@H](C)[C@H](NC(=O)[C@H](CCCNC(=N)N)NC(=O)[C@H](CCCCN)NC(=O)[C@H](Cc1ccc(O)cc1)NC(=O)[C@H](CC(=O)O)NC(=O)[C@H](C)NC(=O)CNC(=O)CCOCCOCCOCCNC(=O)CN1CCN(CC(=O)O)CCN(CC(=O)O)CCN(CC(=O)O)CC1)C(=O)N[C@H](C(=O)N[C@@H](CC(C)C)C(=O)N[C@@H](CCCCN)C(=O)N[C@H](C(=O)N[C@@H](CC(N)=O)C(N)=O)C(C)C)[C@@H](C)O [copper-64 labelled]  tissue uptake (C57BL/6J mouse male, B16-F10 tumour, small intestine; intravenous, 1.85 MBq, 100 min, 67Ga complex): 2.21 ± 0.495 %ID/g
